# Results collected from several papers.
# Numbered parts are unrelated; each lists some results of a single study. Changes are numbered by the printed parent chain.

# Study 1
# Target: CEBPA, bZIP domain (human)
# Technique: DHFR protein complementation
# Matrix: yeast
# Setting: single substitutions, most at no-binding floor
# Relative to: wild-type JUN-FOS pair
# Direction: higher = stronger binding
# Starting sequence: JUN, bZIP domain (human); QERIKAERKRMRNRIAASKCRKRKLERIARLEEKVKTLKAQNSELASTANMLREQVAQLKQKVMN; partner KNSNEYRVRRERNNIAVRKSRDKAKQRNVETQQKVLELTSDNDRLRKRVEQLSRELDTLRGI
Variant,binding fitness [natural log]
M51Y,-1.37
A57N,-1.45
K36A,-1.41
T37Q,-1.06
A57G,-1.4
L45A,-1.45
N42G,-1.46
S43H,-1.47
M51H,-1.21
A57H,-1.48
A49D,-1.46
T48C,-1.35
I28E,-1.18
E32Q,-1.53
R30A,-1.42
M51A,-1.39
L45Y,-1.31
N42E,-1.43
L31H,-1.55
Q55V,-1.5
Q41H,-1.34

# Study 2
# Target: Histone acetyltransferase KAT6A, winged helix 2, GST fusion (KAT6A, Homo sapiens, UniProt Q92794, residues 85-181)
# Technique: protein binding microarray
# Molecule type: double-stranded DNA, one strand shown
# Matrix: in vitro
# Tested at: not given
# Setting: 8-mer, flanks averaged, mean of 2 arrays, mostly near background
# Relative to: not given
# Direction: higher = stronger binding
# Residues (chain): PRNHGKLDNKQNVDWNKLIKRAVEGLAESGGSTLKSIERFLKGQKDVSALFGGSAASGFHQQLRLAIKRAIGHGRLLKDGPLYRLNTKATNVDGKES
Sequence,E-score
ATGTACTC,-0.187
GCCATAAC,-0.134
ACCTGGCT,-0.0911
AACATCTA,-0.238
AGCAGCGA,0.181
ATTCCTCA,0.0029
GGGAATCA,-0.0374
CATCCCAG,-0.0171
CTGTATAC,-0.0216
CTGAACTC,-0.0206
AAAGGCAA,0.124
AGTCGACC,0.0879
CACGTGAA,-0.199
ATCATTCA,0.0469
ATGTTTAA,-0.121
AGATAGAG,-0.123
CTATTACC,-0.0886
ACTCCTGA,0.0701
CAAGGATA,-0.0726
GCGATGCC,0.109
GACGAGGC,0.0307
CAGGGTAG,-4.5e-05
AGCCCGAA,0.105
ATGATAGA,0.00786
TATAGTCA,0.0459

# Study 3
# Target: RNA binding protein fox-1 homolog 2, RRM domain, GST-SBP tag (RBFOX2, Homo sapiens, UniProt O43251-10, residues 100-194)
# Technique: RNA Bind-n-Seq
# Molecule type: RNA
# Matrix: in vitro
# Tested at: 365 nM
# Setting: natural RNA segment, single round, ends assumed
# Relative to: no-protein control
# Direction: higher = stronger binding
# Constant ends, left off below: GGGAGUUCUACAGUCCGACGAUC … UGGAAUUCUCGGGUGCCAA
# Target sequence (chain): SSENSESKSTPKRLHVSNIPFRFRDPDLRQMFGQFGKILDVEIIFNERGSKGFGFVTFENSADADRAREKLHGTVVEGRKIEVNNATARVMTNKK
Sequence,RBNS enrichment (R)
CAGAAAAGUGAGUGUACUGGCAGUUAGUGUCACUGCUUUGCACAGUCCCCAUUAAAGGACCCUCCAGAGAGGGACAGUAACUGUGCAUGAGAAGCCGCUCCCAUAAGCCU,5.13
UGGGACUUGAGAUUUGAGGAAAAAAGAUGCUUAUUUGGAAUUUCUAUUAAGAACUAUCCUUGUUAUUUUCUUAGCUCAAUAAUUACUCAAGAAAAAUAAAAGAUUAUAAU,0.585
AAGCAGUUUUGUCUUGGAAUUUUGUAUGUUGUAGGAAUCCUUAGAGAGUGUGGUUCCUUCUGAUGGGGAGAAAGGGCAAAUUAUUUUAAUAUUUUGUAUUUUCACCUUUA,0.444
UUACAGUGGCUCGUUGCUUCCCUCACUCUGCCCUUGUUAAUAGAAAUUCUCACAGGCCAGGCUCUGUGCGGGCUCUAGUGCCAGGUGUAGCUGGGUACAUUCCCCGUCAG,0.137
ACUUAAUGGUGCUUAAAAAUCGGGGCACUUAAAAUAAGUUUACGGCCAAAGGUGCAGCAGUGCUUAUCACAUCCACAUACUAAGAGAUUGGUCUUAGUGCGUUUGUGCCC,0.328
GAUCUUAAGUAUUCUGGAAUAUACCAGAUUGGUAGAACUACCAGACUUGGGUAUUUCUCAGUUAACACACAUGCAAGGAGGAAGAGAGUUUUUUUGAACAAAAUGACUGG,0.593
CCUAAUUGAAGAGUGGCAGAGGCUACUACAAAAAGCAACCUUUUCAUUUUCACUAAGAGUUUAAAAGCUAUUGUAUUAUUAAAAAGUCUUUACAAUGCUUGUUUCAAAGA,0.403
AGUGCUGAGAUUACAGGCGUGAGCCUCCGCGCCCGGCCCCCUUGCAGUUCUCUCUGAUUUGGUUUGUUCUGUCUCAGGCUUCUGUGGCAGGACUGGCCCAGGGAGGAGGA,0.215
UAGCUGGCCUGGAAUUCACUAUGUAGAGCAGACUGGUCUUGAACUCACAGUCACAGAGAUCACCUGCCCCCUCUGCCUUUCAAGUACAGGGAUUAAAGGCAUGCAUCACC,0.486
UACCACCCGCCCUGGCUCCCCAGCUGCAGGUUGCACACCCUCAGCCUGAGAAUGUAAAAUAGGGCAGUGCCCAGCUGGGGAGGUAGAGGAAAGUGCUAGAGUACAUGGUC,4.75
AACAGUAAUGGGGCUAAAGGGGCAGUGAGCUCCAAACAGUCACAGAGUGAGGAGUCUUCUGAGCUCCCUGGCUAAGUGCAGCGUGCUAGCAGACAGGCAGGGGAUGCAAA,0.246
UAACAAACCAAUAAGAUAUUUGUCUCCUAUAUAAACAUUCUGUGUAUUUAGCACUUGAAAAUCAACAAAUCCAGAAUUUAAAAAAAUGCCACAGACUUUUCAAAGCCCAA,0.566

# Study 4
# Target: UBE2I UBC core domain (UniProt P63279)
# Technique: yeast two-hybrid
# Matrix: yeast
# Setting: mostly zero background
# Relative to: not given
# Direction: higher = stronger interaction
# B1: TRIM28 RING domain (UniProt Q13263); chain GAEALELLEHCGVCRERLRPEREPRLLPCLHSACSACLGPAAPAAANSSGDGGAAGDGTVVDCPVCKQQCFSKDIVE
# B2: PJA2 RING domain (UniProt O43164); chain DHTAIGQEQCCPICCSEYIKDDIATELPCHHFFHKPCVSIWLQKSGTCPVCRRHFPPAVIEA
# B3: RNF11 RING domain (UniProt Q9Y3C5); chain RDGSEKKIRECVICMMDFVYGDPIRFLPCMHIYHLDCIDDWLMRSFTCPSCMEPVDAALLSS
# B4: RNF7 RING domain (UniProt Q9UBF6); chain AICRVQVMDACLRCQAENKQEDCVVVWGECNHSFHNCCMSLWVKQNNRCPLCQQDWVVQRIGK
# B5: NHLRC1 RING domain (UniProt Q6VVB1); chain MREAEISLLECKVCFEKFGHRQQRRPRNLSCGHVVCLACVAALAHPRTLALECPFCRRACRGCDTSD
# B6: RNF10 RING domain (UniProt Q8N5U6); chain VRICSHEVPSCPICLYPPTAAKITRCGHIFCWACILHYLSLSEKTWSKCPICYSSVHKKDLKS
# B7: TRIM47 RING domain (UniProt Q96LD4); chain MDGSGPFSCPICLEPLREPVTLPCGHNFCLACLGALWPHRGASGAGGPGGAARCPLCQEPFPDGLQLR
# B8: TRIM32 RING domain (UniProt Q13049); chain NLDALREVLECPICMESFTEEQLRPKLLHCGHTICRQCLEKLLASSINGVRCPFCSKITRITSLTQ
# B9: MDM2 RING domain (UniProt Q00987); chain TQDKEESVESSLPLNAIEPCVICQGRPKNGCIVHGKTGHLMACFTCAKKLKKRNKPCPVCRQPIQMIVLTYFP
# B10: TRIM2 RING domain (UniProt Q9C040); chain VRQIDKQFLICSICLERYKNPKVLPCLHTFCERCLQNYIPAHSLTLSCPVCRQTSILPEKGV
# B11: TRIM68 RING domain (UniProt Q6AZZ1); chain LVEAIVEEVACPICMTFLREPMSIDCGHSFCHSCLSGLWEIPGESQNWGYTCPLCRAPVQPRNLRP
Sequence,lacZ reporter activity
B1 (TRIM28 RING domain),0
B2 (PJA2 RING domain),0
B3 (RNF11 RING domain),0
B4 (RNF7 RING domain),0
EDVLSKDAGECAICLEELQQGDTIARLPCLCIYHKGCIDEWFEVNRSCPEHPSD (ZNRF2 RING domain (UniProt Q8NHG8)),0
B5 (NHLRC1 RING domain),0
AAQLLEEKLTCAICLGLYQDPVTLPCGHNFCGACIRDWWDRCGKACPECREPFPDGAELR (TRIM65 RING domain (UniProt Q6PJ69)),0
B6 (RNF10 RING domain),0
B7 (TRIM47 RING domain),0
VPADASPDSKCPICLDRFDNVSYLDRCLHKFCFRCVQEWSKNKAECPLCKQPFDSIFHSV (TOPORS RING domain (UniProt Q9NS56)),0
B8 (TRIM32 RING domain),0
EIKDYKARLTCPCCNMRKKDAVLTKCFHVFCFECVKTRYDTRQRKCPKCNAAFGANDFHR (RNF20 RING domain (UniProt Q5VTR2)),0
B9 (MDM2 RING domain),0
B10 (TRIM2 RING domain),0
B11 (TRIM68 RING domain),0
KITELNPHLMCALCGGYFIDATTIVECLHSFCKTCIVRYLETNKYCPMCDVQVHKTRPLL (PCGF2 RING domain (UniProt P35227)),0

# Study 5
# Target: Sal-like protein 4, full length isoform A (SALL4, Homo sapiens, UniProt Q9UJQ4, residues 1-1053)
# UniProt Q9UJQ4, sequence (whole entry, looked up): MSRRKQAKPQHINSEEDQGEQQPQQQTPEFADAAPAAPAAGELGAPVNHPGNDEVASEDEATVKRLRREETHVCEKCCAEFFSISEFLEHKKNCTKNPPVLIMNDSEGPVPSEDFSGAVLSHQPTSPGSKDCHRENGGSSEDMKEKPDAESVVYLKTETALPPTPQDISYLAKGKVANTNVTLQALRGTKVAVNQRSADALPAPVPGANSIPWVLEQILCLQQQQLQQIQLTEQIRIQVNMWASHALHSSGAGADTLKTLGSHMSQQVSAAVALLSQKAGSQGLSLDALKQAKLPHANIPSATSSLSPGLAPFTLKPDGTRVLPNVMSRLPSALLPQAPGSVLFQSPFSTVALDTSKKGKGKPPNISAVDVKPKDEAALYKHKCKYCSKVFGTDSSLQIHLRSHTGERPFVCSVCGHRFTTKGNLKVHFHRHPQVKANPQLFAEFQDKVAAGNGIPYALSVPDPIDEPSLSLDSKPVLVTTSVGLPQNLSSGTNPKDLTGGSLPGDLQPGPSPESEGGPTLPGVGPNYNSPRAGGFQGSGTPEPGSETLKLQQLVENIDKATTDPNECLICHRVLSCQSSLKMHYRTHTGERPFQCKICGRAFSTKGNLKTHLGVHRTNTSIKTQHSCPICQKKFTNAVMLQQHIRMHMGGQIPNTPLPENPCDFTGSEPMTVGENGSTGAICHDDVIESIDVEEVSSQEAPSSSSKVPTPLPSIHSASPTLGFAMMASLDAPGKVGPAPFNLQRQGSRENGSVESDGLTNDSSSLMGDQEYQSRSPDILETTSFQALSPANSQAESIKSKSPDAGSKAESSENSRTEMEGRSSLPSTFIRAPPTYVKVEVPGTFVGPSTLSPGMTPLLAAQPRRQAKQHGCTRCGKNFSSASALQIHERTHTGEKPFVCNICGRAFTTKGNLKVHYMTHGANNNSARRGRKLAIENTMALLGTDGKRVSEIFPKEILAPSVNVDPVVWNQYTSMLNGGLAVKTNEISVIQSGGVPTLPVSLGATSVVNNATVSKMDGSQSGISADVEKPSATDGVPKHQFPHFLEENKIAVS
# Technique: universal PBM
# Molecule type: double-stranded DNA, one strand shown
# Matrix: in vitro
# Tested at: 600 nM
# Setting: 8-mer, flanks averaged, mean of replicates
# Direction: higher = stronger binding
Sequence,E-score
AGATGTAT,0.272
CTTGCCGA,-0.0758
CACGCCTC,-0.19
CTATGTGC,-0.00341
AGTCACAG,0.0376
AAAACGCT,0.112
CTAACGCA,0.079
CTCTTGTA,0.0289
AGCTACGC,-0.131
TAACCATA,0.286
CGGACCAC,-0.169
AAGGTAGT,0.14
CTATCCCA,-0.109
CTCAACGA,-0.0512
CTGTGTTA,0.0996
CCCGTACG,-0.309
ACCAGTGG,-0.171
AGAGAGCG,-0.148
ACGGGTGC,-0.292
CCGCGAGC,-0.368
ATAGGTAC,0.161
AAAAGGTT,-0.00156
CGAGTGAC,-0.215
GCGGTCAA,-0.106
GCACCGTA,-0.201

# Some of these lines once more (study 2):
Sequence,E-score
GCGATGCC,0.109
CATCCCAG,-0.0171
TATAGTCA,0.0459
ATGTTTAA,-0.121
GCCATAAC,-0.134
ATGATAGA,0.00786
GGGAATCA,-0.0374
ATTCCTCA,0.0029
GACGAGGC,0.0307
AACATCTA,-0.238
ATCATTCA,0.0469
AAAGGCAA,0.124
AGATAGAG,-0.123
